Results gathered from unrelated publications.
± marks the error that the study gave.

With CCCCCCCCCCCCCC[C@@H](O)[C@@H](O)[C@H](CO[C@H]1O[C@H](CO)[C@H](O)[C@H](O)[C@H]1O)NC(=O)CCCCCCCc1ccc(-c2ccccc2)cc1 the IL-4 secretion was 0.56 ± 0.04 (human Vα24+ NKT cells; agonist, ELISA; 10 ng/mL, 24 h, unit not given, with: CD1d-transfected HeLa cells; reference: α-GalCer).
CC(C)CN(CC(=O)N(CC(=O)N(CC(=O)N(CC(=O)N(CC(=O)N(CC(=O)N(CC(N)=O)Cc1ccccc1)Cc1ccccc1)CC(C)C)Cc1ccccc1)Cc1ccccc1)CC(C)C)C(=O)CNCCCCN: “RAGE surface level” “decreased” (THP-1 macrophages; confocal immunocytochemistry; 50 µM, 72 h, with: 2 ng/mL LPS; reference: LPS alone).
For CCOc1cc(C(C)(C)C)ccc1C1=N[C@@H](c2ccc(Cl)cc2)[C@@H](c2ccc(Cl)cc2)N1C(=O)N1CCN(CC(=O)NCCOCCOCCOCCNC(=O)CN2CCN(C(=O)N3C(c4ccc(C(C)(C)C)cc4OCC)=N[C@H](c4ccc(Cl)cc4)[C@@H]3c3ccc(Cl)cc3)CC2=O)C(=O)C1, the IC50 was 8300 ± 2200 nM (A549; cell growth, CCK-8).
With Cn1nc(-c2ccc(CC(=O)Nc3cc(C(C)(C)C)on3)cc2)c2c(N)ncnc21 the EC50 was 24 ± 20 nM (LC-2/ad (CCDC6-RET fusion); cell viability).
Under CD107a level, CN(C)C(=O)Cn1cc(-c2ccc(-c3cncc4ccncc34)cc2)cn1 is recorded as “no effect” (human NK cells; flow cytometry; concentration not given, ADCC).
For CCCCCCCCCCCCCC[C@@H](O)[C@@H](O)[C@H](CO[C@H]1O[C@H](CO)[C@H](O)[C@H](O)[C@H]1O)NC(=O)CCCCCc1ccccc1, the IFN-γ secretion was 1.12 ± 0.08 (human Vα24+ NKT cells; agonist, ELISA; 10 ng/mL, 24 h, unit not given, with: CD1d-transfected HeLa cells; reference: α-GalCer).
CCCCCCCCCCCCCCCCNNC(=O)c1ccc(N(C)C)cc1: α-tubulin acetylation “no effect” (HEK293T; immunoblot; up to 50 µM, 6 h).
CCN1CCN(c2ccc(Nc3ncc4c(n3)N(C)C(=O)N(c3cc(NC(=O)c5cccc(C(F)(F)F)c5)ccc3C)C4)cc2)CC1 has a GI50 of 342 ± 200 nM (HepG2 (FGFR4 overexpressing); cell proliferation, CellTiter-Glo; 72 h).
CC(=NN=c1[nH]c2cc(F)c(F)cc2n1C)c1ccc(F)cn1 gave an inhibition of ~50% (LM2; cell migration area; 50 nM, two days; reference: untreated).
With CC(=O)OC1CC[C@H]2C3=C(CC[C@]12C)[C@]1(C)c2c(coc2C3=O)[C@H](OC(C)=O)[C@@H]2O[C@@H]21 (some centres unmarked) the ROS level was 1.62 (MDA-MB-231; DCFH-DA fluorescence; concentration not given, unit not given; reference: untreated).
CC[C@@H](C)[C@H](N)C(=O)N1Cc2ccc(F)cc2C1 has an IC50 of 300 nM (NOMO-1; cell viability, CellTiter-Glo).
For O=C1Nc2cccc(C#CC3(O)CCNCC3)c2/C1=C/c1cc2ccccc2[nH]1, invadopodia formation read “no effect” (C8161.9 lacking LIC2; 100 nM; reference: DMSO).
Nc1ccc2cc(N)ncc2c1: protein level “decreased” (LX-2; western blot, item: collagen I; concentration not given, with: TGF-β1).
CCOc1ccccc1Nc1nnc(SCC(=O)Nc2cc(F)ccc2F)s1 has an IL-2 secretion of 382 ± 18 pg/mL (co-cultured human PBMCs; MucilAir airway epithelium; 5 µM, 48 h, with: anti-CD3/CD28).
COC(=O)[C@@]1(C)C=C(C(=O)Nc2cccc(C(=O)NC34CC(Nc5nccc(-c6cccnc6)n5)(C3)C4)c2)C(=O)CC1: “AP1 reporter activity” 0.215 (HEK293 AP1 reporter cells; reporter gene, inhibitor, luciferase reporter; 3 µM, 6 h, unit not given, with: PMA; reference: PMA-stimulated).
Cc1cc(Nc2ncc3c(n2)N(C)C(=O)N(c2cc(NC(=O)c4cccc(C(F)(F)F)c4)ccc2C)C3)n(C)n1 has a GI50 of 56 ± 30 nM (Huh-7 (FGFR4 overexpressing); cell proliferation, CellTiter-Glo; 72 h).
CCCCCCCCCCCCCC[C@@H](O)[C@@H](O)[C@H](CO[C@H]1O[C@H](CO)[C@H](O)[C@H](O)[C@H]1O)NC(=O)CCCCCCCCCc1ccccc1 gave an IFN-γ secretion of 0.86 ± 0.06 (human Vα24+ NKT cells; agonist, ELISA; 10 ng/mL, 24 h, unit not given, with: CD1d-transfected HeLa cells; reference: α-GalCer).
The GI50 of O=C(N/N=C/c1ccc(Sc2ccccn2)s1)c1ccccc1Cl is reported as 2300 nM (D458 medulloblastoma; cell growth).
For Cc1ccccc1C(C(=O)NC1CCCCC1)N(C(=O)Cn1ccnc1C)c1cccc([125I])c1 (racemic), the uptake ratio was 1.3 to 1.5 fold (HCT-116 IDH1 R132H/WT; cell uptake; reference: mutant over wild-type cells).
CN1CCN(c2cc(C(=O)Nc3ccc4c(c3)-c3c(c(C(N)=O)nn3-c3ccc(F)cc3)CC4)c(Cl)cn2)CC1: IRAK-1 degradation “no effect” (RA synovial fibroblasts; Western blot; concentration not given, 30 min pretreatment, IL-1β for 10 min, with: IL-1β 1 ng/mL).
The GI50 of Cc1ccc(NC(=O)c2cccc(C(F)(F)F)c2)cc1N1Cc2cnc(Nc3cnn(C)c3)nc2N(C)C1=O is reported as 20 nM (Huh-7 (FGFR4 overexpressing); cell proliferation, CellTiter-Glo; 72 h).
With CCOc1ccc(S(=O)(=O)NC(=O)Cc2ccc(I)cc2)cc1Br the inhibition was 72% (THP-1; cGAMP level, item: cGAMP; cell lysate; 100 µM).
CC(=O)N1CCN(c2ccc(Nc3ncc4c(n3)N(C)C(=O)N(c3cc(NC(=O)c5cccc(C(F)(F)F)c5)ccc3C)C4)cn2)CC1 gave a GI50 of 159 ± 110 nM (Hep3B (FGFR4 overexpressing); cell proliferation, CellTiter-Glo; 72 h).
O=C(N/N=C/c1ccc(Sc2ncccn2)o1)c1cccc(Cl)c1 gave a GI50 of 54000 nM (D458 medulloblastoma; cell growth).
Cc1ccc(NC(=O)c2ccc(CN3CCC(N(C)C)C3)c(C(F)(F)F)c2)cc1N1Cc2cnc(Nc3cnn(C)c3)nc2N(C)C1=O (centres unmarked) gave a GI50 of 21 ± 20 nM (Huh-7 (FGFR4 overexpressing); cell proliferation, CellTiter-Glo; 72 h).
The IFN-γ secretion of CCCCCCCCCCCCCC[C@@H](O)[C@@H](O)[C@H](CO[C@H]1O[C@H](CO)[C@H](O)[C@H](O)[C@H]1O)NC(=O)CCCCCCCCCCCCCCc1ccccc1 is reported as 0.17 ± 0.01 (human Vα24+ NKT cells; agonist, ELISA; 10 ng/mL, 24 h, unit not given, with: CD1d-transfected HeLa cells; reference: α-GalCer).
COc1cc(Nc2ccnc3cc(C#N)ccc23)cc(OC)c1OC — result for CoQ10 level: “no effect” (HAP1; item: unlabelled CoQ10; 20 µM, short incubation).
Under “reduction in total tau”, O=C(NNC(=S)Nc1cccc(C(F)(F)F)c1)c1cccn1-c1ccc(F)cc1 is recorded as 30% (primary rat cortical neurons; concentration not given).
CCCCCCCCCCCCCC[C@@H](O)[C@@H](O)[C@H](CO[C@H]1O[C@H](CO)[C@H](O)[C@H](O)[C@H]1O)NC(=O)CCCCCCCCCCc1ccc(F)cc1 gave an IFN-γ/IL-4 ratio of 2.62 ± 0.18 (human Vα24+ NKT cells; agonist; 10 ng/mL, 24 h, with: CD1d-transfected HeLa cells; reference: α-GalCer).
O=C(N[C@H](Cc1ccccc1)C(=O)O)c1sc2cc(F)ccc2c1Cl gave an inhibition of ~60% (RAW264.7; TNF-α production, ELISA; 10 µM, with: poly(I:C)).
With CCCCCCCCCCCCCC[C@@H](O)[C@@H](O)[C@H](CO[C@H]1O[C@H](CO)[C@H](O)[C@H](O)[C@H]1O)NC(=O)CCCCCCCCCCc1ccc(C(F)(F)F)cc1 the IL-4 secretion was 0.87 ± 0.21 (human Vα24+ NKT cells; agonist, ELISA; 10 ng/mL, 24 h, unit not given, with: CD1d-transfected HeLa cells; reference: α-GalCer).
O=C(Nc1ccc([N+](=O)[O-])cc1)N[C@H](Cc1c[nH]c2ccccc12)C(=O)NCC1(c2ccccn2)CCCCC1 gave an EC50 of 4300 nM (human neutrophils; chemotaxis, agonist).
C[C@@]12C3=C(C(=O)c4occ(c41)[C@H](O)[C@@H]1O[C@@H]12)[C@@H]1CCC(O)[C@@]1(C)CC3 (some centres unmarked) has an ROS level of 1.26 (MDA-MB-231; DCFH-DA fluorescence; concentration not given, unit not given; reference: untreated).
With C=CC(=O)Nc1cccc(N(C(=O)OCc2ccc(F)cc2)c2ccnc(Nc3ccn(C)n3)n2)c1 the selectivity ratio was 1.8 (Ba/F3 EGFR insSVD or wild type; cell growth; reference: insSVD EC50 over wild-type EC50).
CC(=O)N1CCN(c2ccc(Nc3ncc4c(n3)N(C)C(=O)N(c3cc(NC(=O)c5ccc(CN6CCC(N(C)C)C6)c(C(F)(F)F)c5)ccc3C)C4)cn2)CC1 (centres unmarked) has an inhibition of 40% (SK-HEP1; colony formation, inhibitor, soft agar; 5 µM, 3 weeks).
CCCCCCCCCCCCCC[C@@H](O)[C@@H](O)[C@H](CO[C@H]1O[C@H](CO)[C@H](O)[C@H](O)[C@H]1O)NC(=O)CCCCCCCCCCc1ccccc1 gave an IFN-γ/IL-4 ratio of 1.4 ± 0.15 (human Vα24+ NKT cells; agonist; 10 ng/mL, 24 h, with: CD1d-transfected HeLa cells; reference: α-GalCer).
With C=CC(=O)N1CCC(c2cc(Nc3cc4n(n3)CCOC4)c3ncnn3c2)C1 (single isomer, unassigned) the maximum inhibition was 39.8% (Ramos; calcium flux, FLIPR; 1 h preincubation, with: anti-IgM).
CCN1CCN(c2ccc(Nc3ncc4c(n3)N(C)C(=O)N(c3cc(NC(=O)c5cccc(C(F)(F)F)c5)ccc3C)C4)cn2)CC1 has a GI50 of 139 ± 20 nM (Hep3B (FGFR4 overexpressing); cell proliferation, CellTiter-Glo; 72 h).
For O=C(N/N=C/c1ccc(Sc2ccccn2)s1)c1cccc(Cl)c1, the GI50 was 3700 nM (D458 medulloblastoma; cell growth).
Cc1nn(C)c2c(C(C(=O)O)N3CC(OCCCCc4ccc5c(n4)NCCC5)C3)cccc12 (centres unmarked) — result for Src phosphorylation: “decreased” (PAH PASMCs; Western blot, item: Src Tyr416).
CCN1CCN(Cc2ccc(Nc3ncc4c(n3)Sc3ccccc3C(=O)N4C)cc2C(F)(F)F)CC1 gave an EC50 of 7260 nM (HCT-116; cell growth, CellTiter-Glo; 96 h).

Repeated from above:
CCN1CCN(c2ccc(Nc3ncc4c(n3)N(C)C(=O)N(c3cc(NC(=O)c5cccc(C(F)(F)F)c5)ccc3C)C4)cn2)CC1 has a GI50 of 139 ± 20 nM (Hep3B (FGFR4 overexpressing); cell proliferation, CellTiter-Glo; 72 h).
For O=C(N/N=C/c1ccc(Sc2ccccn2)s1)c1cccc(Cl)c1, the GI50 was 3700 nM (D458 medulloblastoma; cell growth).
Cc1nn(C)c2c(C(C(=O)O)N3CC(OCCCCc4ccc5c(n4)NCCC5)C3)cccc12 (centres unmarked) — result for Src phosphorylation: “decreased” (PAH PASMCs; Western blot, item: Src Tyr416).
